Assay results pooled from the literature.
Values joined by “and” are separate records of one study, mostly repeats; a detail may differ. ± gives the spread as reported.
CDK2 with cyclin A: Cyclin-dependent kinase 2, with cyclin A (CDK2, Homo sapiens, UniProt P24941)
PIK3CB: Phosphatidylinositol 4,5-bisphosphate 3-kinase catalytic subunit beta isoform (PIK3CB, Homo sapiens, UniProt P42338)
HDAC8: Histone deacetylase 8 (HDAC8, Homo sapiens, UniProt Q9BY41)
Genome polyprotein protease: Genome polyprotein, protease (Hepatitis C virus genotype 1b, UniProt O92972)
INSR: Insulin receptor (INSR, Homo sapiens, UniProt P06213)
PARP1: Poly [ADP-ribose] polymerase 1 (PARP1, Homo sapiens, UniProt P09874)

Structure (SMILES)	target	assay	test system	setting	IC50
CC(C)C[C@H](NC(=O)c1ccccc1)C(=O)N[C@@H](CC(C)C)C(=O)N[C@H](/C=C/S(C)(=O)=O)Cc1ccc(CN)cc1	Proteasome subunit beta type-6 (PSMB6, Homo sapiens, UniProt P28072)	competitive ABPP	Raji cell lysate	–	> 10 µM
Cc1cccc(-c2cnn3ccc(Nc4ccc(N5CCOCC5)cc4)nc23)c1	CDK2 with cyclin A	radiometric	–	together with: 1 µM ATP	> 100 µM
CN1CCC[C@@H]1C(=O)N[C@@H](Cc1ccc(-c2ccccc2)cc1)B(O)O	Proteasome subunit beta type-10 / Proteasome subunit beta type-3 (Homo sapiens, UniProt P40306+P49720)	β2i activity, inhibitor	–	immunoproteasome, together with: Ac-KQL-AMC	> 10 µM
Cc1cnc(C(=O)N[C@H]2CCCCC/C=C\[C@@H]3C[C@@]3(C(=O)NS(=O)(=O)C3CC3)NC(=O)[C@@H]3C[C@@H](Oc4nc5ccccc5c5ccccc45)CN3C2=O)cn1	Cytochrome P450 3A7 (CYP3A7, Homo sapiens, UniProt P24462)	inhibitor, LC-MS/MS, DHEA-S formation, 16α-hydroxy	recombinant enzyme	5 min, no preincubation, together with: DHEA-S 5 µM	11.6 µM
CCc1ccc(/N=C2\C(=O)N(Cc3ccc([N+](=O)[O-])cc3)c3ccccc32)cc1	PIK3CB	enzyme activity, inhibitor, ADP detection	–	–	0.06 µM
CNCc1ccc2c(c1)N(C(=O)OCc1ccccc1)[C@H](CNC(=N)N)[C@H]2NC(=O)C(=O)Nc1ccc(Cl)c(F)c1	env (Human immunodeficiency virus 1, UniProt Q75760)	HIV-1 infection	Cf2Th-CD4/CCR5 cells	48 h	0.57 µM
CCCC(=O)OC1CCC2(C)C(CCC3(C)C2CC=C2C4C(C)C(C)CCC4(C(=O)O)CCC23C)C1(C)C (stereo not shown)	UDP-glucuronosyltransferase 1A10 (UGT1A10, Homo sapiens, UniProt Q9HAW8)	enzyme activity, inhibitor	–	–	> 100 µM
C[C@H](CCC(=O)NCCS(=O)(=O)O)[C@H]1CC[C@H]2[C@@H]3CC[C@@H]4C[C@H](O)CC[C@]4(C)[C@H]3C[C@H](O)[C@]12C	Hepatic sodium/bile acid cotransporter (SLC10A1, Homo sapiens, UniProt Q14973)	–	–	–	24.9 µM
Cc1ccc2c(c1)nc(NC(=O)c1cccc(C(F)(F)F)c1)n2[C@H]1CC[C@H](N)CC1	CDC2-like kinase 1 (Trypanosoma brucei brucei, UniProt Q382U0)	enzyme activity, inhibitor, ADP-Glo	–	10 min preincubation, together with: ATP 10 µM	> 20 µM
O=C(Cc1ccc(OCc2ccccc2)cc1)NC1(C(=O)O)CCN(C(=O)c2ccc(-c3cccc(Cl)c3)cc2)CC1	Lysophosphatidic acid receptor 3 (LPAR3, Homo sapiens, UniProt Q9UBY5)	antagonist, GloSensor cAMP	–	–	> 10 µM
Cn1cncc1[C@@]1(N)c2ccc(C#N)c(c2)COc2cccc(c2)-c2cc(C#N)nc3ccc1cc23	Protein farnesyltransferase (Homo sapiens, UniProt P49354+P49356)	enzyme activity, inhibitor	–	–	0.00241 µM and 0.0024 µM
COc1ccccc1/C=C1\C(=O)N(C)c2ccc(Nc3nc(C)nc4ccccc34)cc21	PIK3CB	enzyme activity, inhibitor, ADP detection	–	–	0.111 µM
Cc1ccc(C(=O)Nc2ccnc(S(N)(=O)=O)c2)c(N2CCCC(F)(F)CC2)n1	Sodium channel protein type 2 subunit alpha (SCN2A, Homo sapiens, UniProt Q99250)	Nav1.2 sodium current, inhibitor, automated patch clamp	–	–	> 33.8 µM
Nc1ncc2c(n1)-c1c([nH]c3ccc(C4=CCOCC4)cc13)CCC2	Myosin light chain kinase family member 4 (MYLK4, Homo sapiens, UniProt Q86YV6)	target engagement in cells, BRET	–	–	0.014 µM
CN(C)CCCn1c(=N)n(CC(O)c2ccc(Br)cc2)c2ccccc21 (stereo not shown)	CatSper channel complex (Homo sapiens, UniProt Q7RTX7+Q86XQ3+Q8NEC5+Q96P56)	calcium influx, inhibitor, FLIPR	human sperm	together with: high pH, high potassium	6.3 µM
CCOc1cc(CN2CCC3(CC2)CN(c2ccc(C(=O)O)cc2)C(=O)N3)c(C2CC2)cc1C	Somatostatin receptor type 5 (SSTR5, Homo sapiens, UniProt P35346, I202A)	cAMP level, antagonist, GloSensor	AD293	I202A mutant, bandwidth 5.39, together with: CST17 EC80 and forskolin	0.00891 µM
Cc1nn(-c2cccc(N)c2)c(=O)c2cnc(Nc3ccc(N4CCNCC4)cc3)nc12	Tyrosine-protein kinase Lyn, isoform B (LYN, Homo sapiens, UniProt P07948)	inhibitor, SelectScreen kinase	–	–	1.02 µM
O=C(Nc1cc(-c2ccc(Cl)cc2)[nH]n1)c1cccc(O)c1	CDK2 with cyclin A	radiometric	–	together with: 1 µM ATP	5.4 µM
Fc1ccc(Nc2nc(NC3CCCCC3)c3cc(Br)ccc3n2)cc1F	Beta-2 adrenergic receptor (ADRB2, Homo sapiens, UniProt P07550)	cAMP production, antagonist, GloSensor	–	together with: isoproterenol 1 µM	28 ± 10 µM
Cc1cc(C(C)(C)C)ccc1OS(=O)(=O)Oc1cncc(C(=O)NO)c1	HDAC8	enzyme activity, inhibitor, fluorescence	–	–	5 µM

Structure (SMILES)	target	assay	test system	setting	IC50
O=C(CCl)NCCC(c1ccccc1)c1ccco1 (stereo not shown)	UGT74F1 (Arabidopsis thaliana, UniProt O22820)	enzyme activity, inhibitor	–	–	163 µM
Cc1ccc2nc(NN)n(Cc3ccccc3)c(=O)c2c1	Genome polyprotein protease	enzyme activity, inhibitor, FRET	–	–	29.5 µM
O=c1c(-c2ccc(Cl)c(CN3CCOCC3)c2)coc2cc(O)ccc12	3 beta-hydroxysteroid dehydrogenase/Delta 5-->4-isomerase type 1 (HSD3B1, Homo sapiens, UniProt P14060)	DHEA metabolism, inhibitor	VCaP	together with: [3H]-DHEA	0.00586 µM
CCN(CC)CC(=O)Nc1cccc(-n2cc(-c3ccc4ccc(-c5cn(-c6cccc(NC(=O)CN(CC)CC)c6)nn5)cc4c3)nn2)c1	INSR	enzyme activity, inhibitor	–	–	> 10 µM
CCn1nc(Cl)c2c1-c1cnc(N)c(c1)O[C@H](C)c1cc(F)ccc1-c1nn(C)cc1C2	INSR	enzyme activity, inhibitor, radiometric	–	–	0.19 µM
O=C(CCc1ccco1)N1C(=O)C2(NC(c3ccc(F)cc3)C3(C(=O)Nc4ccccc43)N2Cc2ccc(F)cc2)c2ccccc21 (stereo not shown)	PIK3CB	enzyme activity, inhibitor, ADP detection	–	–	0.962 µM
COc1cc(-n2cc3cc(F)cc(C(N)=O)c3n2)cc(Cl)c1C1CCCC(O)(CCO)C1 (stereo not shown)	PARP1	enzyme activity, inhibitor, radiometric	–	–	0.00036 µM
COc1ccc2c(c1)CN(C(=O)CCN1CCC(Cc3ccccc3)CC1)CCS2	Potassium voltage-gated channel subfamily A member 5 (KCNA5, Homo sapiens, UniProt P22460)	IKur current, inhibitor, whole-cell patch clamp	stable cell line	–	0.38 µM
O=S(=O)(O)c1ccc(N=Nc2ccc(O)cc2O)cc1	Bcl-2-related protein A1 (Mus musculus, UniProt Q07440, C113S/P104K)	ligand displacement, FP	–	–	79.8 µM
Cc1cc(NC2CCN(C)CC2)ccc1-c1cc2c(N3CCC[C@H](C(=O)NCc4ccc(OC(F)(F)F)cc4)C3)ncnc2[nH]1	RAC-alpha serine/threonine-protein kinase (AKT1, Homo sapiens, UniProt P31749)	enzyme activity, inhibitor, mobility shift	–	–	2.41 µM
Cc1nc(N(C)c2ccc3c(c2)/C(=C/c2cn(C)c4ccccc24)C(=O)N3C)c2ccccc2n1	PIK3CB	enzyme activity, inhibitor, ADP detection	–	–	0.106 µM
Cc1c(COc2cc(OCc3cccc(C#N)c3)c(CN3CCCC[C@H]3C(=O)O)cc2Cl)cccc1-c1cccc(OCCCCCC(=O)NO)c1	Histone deacetylase 3 (HDAC3, Homo sapiens, UniProt O15379)	enzyme activity, inhibitor	–	–	0.0485 µM
COc1ccc2c(c1)N(C1=C(c3ccc(F)cc3)C(=O)NC1=O)CC2	Glycogen synthase kinase-3 beta (GSK3B, Homo sapiens, UniProt P49841)	enzyme activity, inhibitor	–	–	280 µM
Cc1ccc(CN2C3(NC(c4ccc(C)cc4)C24C(=O)Nc2ccccc24)C(=O)Nc2ccccc23)cc1 (stereo not shown)	PIK3CB	enzyme activity, inhibitor, ADP detection	–	–	0.655 µM
NC(=O)c1cccc2cn(-c3cc(F)c(C4CCCC(CCO)C4)c(F)c3)nc12 (stereo not shown)	PARP1	enzyme activity, inhibitor, radiometric	–	–	0.00069 µM
O=c1c2cc3ccccc3cc2[nH]c(=S)n1Cc1ccccc1	Genome polyprotein protease	enzyme activity, inhibitor, FRET	–	–	37.2 µM
O=C1Nc2c(Br)cccc2/C1=C1/Nc2ccccc2C1=NO	Non-receptor tyrosine-protein kinase TYK2 (TYK2, Homo sapiens, UniProt P29597)	–	–	–	> 10 µM
CC(C)(C)c1cccc(OS(=O)(=O)Oc2cc(F)cc(C(=O)NO)c2)c1	HDAC8	enzyme activity, inhibitor, fluorescence	–	–	6.96 µM
CC1(C)C[N+]2=Cc3ccc4[n]3[Au-]23[n]2c(ccc2-c2nc5ccccc5nc2-4)C=[N+]3C1.F[P-](F)(F)(F)(F)F	DNA topoisomerase 1 (TOP1, Homo sapiens, UniProt P11387)	enzyme activity, inhibitor	–	–	8.5 µM
C[C@@H](O)[C@H](NC(=O)[C@@H]1CSSC[C@@H](NC(=O)[C@H](Cc2ccccc2)NC(N)=O)C(=O)N[C@@H](Cc2ccc(NC(N)=O)cc2)C(=O)N[C@H](Cc2c[nH]c3ccccc23)C(=O)N[C@@H](CCCCN)C(=O)N[C@@H]([C@@H](C)O)C(=O)N1)C(N)=O	Somatostatin receptor type 5 (SSTR5, Homo sapiens, UniProt P35346)	ligand displacement, radioligand	–	–	> 1 µM
